Results collected from several papers.
Parts stem from different laboratories: compare values within a part only.

Block 1
Target: RING finger protein unkempt homolog, zinc fingers 1-6, GST-SBP tag (UNK, Homo sapiens, UniProt Q9C0B0, residues 30-357)
Sequence of UniProt Q9C0B0 (30-357, looked up): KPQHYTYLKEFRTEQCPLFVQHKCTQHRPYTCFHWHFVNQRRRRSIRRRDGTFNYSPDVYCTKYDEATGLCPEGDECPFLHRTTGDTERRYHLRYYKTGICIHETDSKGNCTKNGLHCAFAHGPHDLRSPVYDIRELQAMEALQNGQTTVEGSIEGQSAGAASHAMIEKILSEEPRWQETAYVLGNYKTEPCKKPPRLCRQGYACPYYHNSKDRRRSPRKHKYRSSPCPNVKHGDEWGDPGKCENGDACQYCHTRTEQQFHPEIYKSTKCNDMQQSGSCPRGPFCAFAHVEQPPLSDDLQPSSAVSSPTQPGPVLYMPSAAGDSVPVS
Technique: RNA Bind-n-Seq
Molecule type: RNA
Matrix: in vitro
Tested at: not given
Notes: RNA with constant flanks, human-mouse chimeric sites, ends assumed
Reference: input RNA pool
Reading: higher = stronger binding
Quantity: bound/input enrichment
GGGAGUUCUACAGUCCGACGAUCCGCUGGCCCAAGCUGAUGGACUCUGAUGGCCUCCAUCAAGGUAUUAUGUGUGCCUUCUCUUAGUCCCUGUUUUCGGGAUGUUAUGAACAGUAUCAUGGUGGUUUGAAAGCACCAGCUUUGCAACAGAGGAUUGAGCAUCA: 0.103 ratio
GGGAGUUCUACAGUCCGACGAUCGGUGGGGGGUUGUCAUUCGUUUGAGCUCUGCUGAUUCAUGAGUCGCCUUCAAAACUCUCGUGUAGGGUUGACAAUGUGGGGGGGUGGGGGAUCCAGCUUAUUCUUUUAUUUUCAAGUCCACAACAGAGGAUUGAGCAUCA: 1.11 ratio
GGGAGUUCUACAGUCCGACGAUCAUGGAACAUUUUGAUGCGUCACUCAGUACCUAUUUCAAGGCCUUCCUGGGCCCCCGAGAUACAAGAGUCAAAGGAUGGUUCCUCCUGGACAAUUACAUACCCACAUUUGUCUGUUCUGUUCAACAGAGGAUUGAGCAUCA: 0.131 ratio
GGGAGUUCUACAGUCCGACGAUCGUAAUGGACGUCAACACUGCUUUACAAGAGGUUCUGAAGACCGCCCUCAUCCACGAUGGCCUAGCACGUGGCAUACGCGAAGCUGCCAAAGCCUUAGACAAGCGCCAAGCCCAUCUGUGUCAACAGAGGAUUGAGCAUCA: 0.18 ratio

Block 2
Target: Fragile X messenger ribonucleoprotein 1, C-terminal low-complexity region (Fmr1, Mus musculus, UniProt P35922)
Technique: RNA Bind-n-Seq
Molecule type: RNA
Matrix: in vitro
Tested at: 200 nM
Notes: whole 134-nt RNA, ends assumed
Together with: 150 mM LiCl
Reference: input library
Reading: higher = stronger binding
Quantity: log2 enrichment
All molecules: 7-deaza-guanosine replaces G
Constant ends, left off below: GGGAGUUCUACAGUCCGACGAUC … UGGAAUUCUCGGGUGUCAAGG
UGGCCCUGGUGGCAUGCGGGGAAGAAGAGGUGGCCUCAUGGAUCGUGGUGGUCCCGGUGGAAUGUUCAGAGGUGGCCGUGGUGGAGACAG: 0.265
ACCAUGCAGGUGGGCAUCUUUGGGAAGUGGGGCAAGGCGGGGAUAGGGAGGGGGGUAACACUUUGGGAACAGGUGGUCCCAGGUCGUUUC: 1.14
CACAGACAACACGCACCCACACAGACACAGAGGGAAGGGGUUGGGAUGGGGACAGGGUGCACAGCAGGGCGGGGUAGGACCCCAAACCCU: -1.26
UAACUUUAGAGGAGGAUCUGAUGGAUAUGGCAGUGGGCGUGGAUUUGGGGAUGGCUAUAAUGGGUAUGGAGGAGGACCUGGAGGUGGCAA: 0.55
CCUCAAGUCCUGUGCUACACAUCGUAUGUACCGAAUCGGGGUUGGUUGGUUGGAAAGUAUUAUGUUACGCCGUUCGGAUCUGCACUUCCA: -0.795
ACCAUGCAGGUGGGCAUCUUUGGGAAGUGGGGCAAGGGGGGGAUAGGGAGGGAGGUAACACUUUGGGAACAGGUGGUCCCAGGUCGUUUC: 1

Block 3
Target: Histone acetyltransferase KAT6A, winged helix 2, GST fusion (KAT6A, Homo sapiens, UniProt Q92794, residues 85-181)
Technique: protein binding microarray
Molecule type: double-stranded DNA, one strand shown
Matrix: in vitro
Tested at: not given
Notes: 8-mer, flanks averaged, mean of 2 arrays, mostly near background
Reference: not given
Reading: higher = stronger binding
Quantity: E-score
Target sequence (chain): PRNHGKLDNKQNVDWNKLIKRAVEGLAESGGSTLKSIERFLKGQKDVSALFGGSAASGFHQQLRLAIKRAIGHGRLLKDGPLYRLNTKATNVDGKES
AGTCTTAG: -0.171
ACTCCGGA: 0.162
GTCCAAAA: 0.0894
AACCTGAA: -0.216
GGTGTGGA: 0.114

Mixed results
PhoQ, residues 284 288 289 292 302 303 SLANKL  fold induction (PhoP, residues 12 14 15 18 19 NMSSL (Escherichia coli, UniProt P23836); Sort-seq, measured: YFP reporter; E. coli; PhoQ-PhoP variant library, together with: 10 µM Mg2+; reference: high Mg2+ state, higher = stronger signaling): 8.99

Some of these lines once more (block 1):
GGGAGUUCUACAGUCCGACGAUCAUGGAACAUUUUGAUGCGUCACUCAGUACCUAUUUCAAGGCCUUCCUGGGCCCCCGAGAUACAAGAGUCAAAGGAUGGUUCCUCCUGGACAAUUACAUACCCACAUUUGUCUGUUCUGUUCAACAGAGGAUUGAGCAUCA: 0.131 ratio
